Results from different studies.
Protocols differ between the studies behind these lines. “And” joins repeats or separate records; there may be more than shown.
ALK: ALK tyrosine kinase receptor (ALK, Homo sapiens, UniProt Q9UM73)

COc1cc(Nc2nccc(-c3cnn4nc(OC)ccc34)n2)cc(C(F)(F)F)c1
remaining binding (ALK; binding, competition with immobilised ligand; 1 µM): 87%

NC(=O)C[C@H]1CCc2sc3ncnc(O[C@H]4CC[C@H](N5CCOCC5)CC4)c3c21
inhibition (ALK; enzyme activity, inhibitor; 10 µM): 22%

C=C1CCCCCCCCCC(CO)C1=O (stereo not shown)
remaining signal (ALK; cell-free assay; 10 µM): 100%

COc1c(OCCCN2CCOCC2)ccc2c1N=C(NC(=O)c1cnc(N)nc1)N1CCN=C21
remaining activity (ALK; kinase activity, inhibitor; 1 µM; reference: untreated control): 124%

C=CC(=O)Nc1cccc(-c2cnc3[nH]cc(C(=O)NC(C)(C)C)c3n2)c1
inhibition (ALK; kinase activity; 0.1 µM): 9% and 14%

Nc1ncc(-c2cc(-c3cnn(CC(F)(F)F)c3)ncc2F)nc1C(=O)NC1CNCC(F)C1 (stereo not shown)
remaining activity (ALK; enzyme activity; 1 µM; reference: DMSO control): 86.7%

O=C(Nc1ccc(Oc2ncnc3[nH]cc(-c4ccccc4)c23)c(F)c1)c1c2n(n(-c3cc(F)ccc3F)c1=O)CCCC2
inhibition (ALK; enzyme activity, inhibitor; 0.5 µM): 23%

O=C=[N][Ru-4]123([n]4c5ccc(O)cc5c5c6c(c7cc(F)c[n+]1c7c54)C(=O)NC6=O)[S+]1CC[S+]2CC[S+]3CC1 (stereo not shown)
remaining activity (ALK; enzyme activity; 100 nM, human enzyme, with: 10 µM ATP; reference: untreated): 60%

C=CC(=O)N1Cc2nc(-c3cc(-c4cc(Cl)cnc4Cl)c(F)cc3F)n(-c3ccncn3)c2C1
inhibition (ALK; cell-free assay; 1 µM): 2.4%

Cc1cccc(O[C@H]2CCC[C@@H](C(C)CNCc3ccncc3)C2)c1 (relative stereo)
inhibition (ALK; cell-free assay; 1 µM): 1%

COc1cc(N2CCN(C(=O)C3CCCN3)CC2)ccc1Nc1ncc(Cl)c(Nc2ccccc2P(C)(C)=O)n1 (stereo not shown)
remaining protein level (ALK tyrosine kinase receptor, EML4-ALK fusion (ALK, Homo sapiens, UniProt Q9UM73); degrader, immunoblotting; Ba/F3 ALK; 100 nM; reference: untreated): 60%

CN1CC[C@@H](COc2cnc(C#N)cc2-c2ccn3nc(NC(=O)C4CC4)cc3c2)C1
inhibition (ALK; enzyme activity, inhibitor; 1 µM): 28%

CN1CCN(Cc2ccc(-c3ccc(CO[C@H]4CCC[C@@H]4NC(=O)c4cc(-c5cnn(C)c5)cnc4N)cc3)cc2)CC1
inhibition (ALK; enzyme activity, inhibitor; 0.1 µM): 0%

For quick reference, copied from above:
C=CC(=O)Nc1cccc(-c2cnc3[nH]cc(C(=O)NC(C)(C)C)c3n2)c1
inhibition (ALK; kinase activity; 0.1 µM): 9% and 14%

Nc1ncc(-c2cc(-c3cnn(CC(F)(F)F)c3)ncc2F)nc1C(=O)NC1CNCC(F)C1 (stereo not shown)
remaining activity (ALK; enzyme activity; 1 µM; reference: DMSO control): 86.7%
